Measured values from different studies.
Parts stem from different laboratories: compare values within a part only. Positions count from the first letter of the parent shown.

Series 1
Target: Histone acetyltransferase KAT6A, winged helix 2, GST fusion (KAT6A, Homo sapiens, UniProt Q92794, residues 85-181)
Method: protein binding microarray
Molecule type: double-stranded DNA, one strand shown
Matrix: in vitro
Tested at: not given
Notes: 8-mer, flanks averaged, mean of 2 arrays, mostly near background
Reference: not given
Reading: higher = stronger binding
Construct (chain): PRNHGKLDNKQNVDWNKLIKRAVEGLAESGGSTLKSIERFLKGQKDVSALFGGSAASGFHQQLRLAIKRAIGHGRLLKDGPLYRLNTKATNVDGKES
| Oligonucleotide | E-score |
| --- | --- |
| GCATCCCA | -0.0914 |
| GCTAGAGA | 0.0107 |
| ACCGAAAT | -0.0575 |
| AAGACATA | -0.143 |
| CAGAGATC | 0.139 |
| GGGAATCA | -0.0374 |
| ATGTAGCG | -0.0605 |
| CACGTGAA | -0.199 |
| CTATTACC | -0.0886 |
| GTACTCTA | -0.18 |
| CCACGAAC | 0.17 |
| ATCATTCA | 0.0469 |
| AGCATACC | -0.0599 |
| GGAGATTA | -0.0762 |
| AACCTATC | -0.174 |
| ATGGGGAG | -0.0194 |
| AAGAAGGC | -0.131 |
| GTTAGAGA | -0.0842 |
| AAGCACTG | 0.136 |
| AGCCACAT | -0.0418 |
| GGTCTGAC | 0.0307 |
| CATAAAAA | 0.131 |
| GGTTAAAC | 0.0905 |

Series 2
Target: RNA binding protein fox-1 homolog 2, RRM domain, GST-SBP tag (RBFOX2, Homo sapiens, UniProt O43251-10, residues 100-194)
Method: RNA Bind-n-Seq
Molecule type: RNA
Matrix: in vitro
Tested at: 365 nM
Notes: natural RNA segment, single round, ends assumed
Reference: no-protein control
Reading: higher = stronger binding
Target sequence (chain): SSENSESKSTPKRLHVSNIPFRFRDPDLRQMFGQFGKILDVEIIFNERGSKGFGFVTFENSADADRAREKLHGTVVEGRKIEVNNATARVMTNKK
| Oligonucleotide | RBNS enrichment (R) |
| --- | --- |
| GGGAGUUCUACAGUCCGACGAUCCAGAACAAGUUACCUGUCACAUUGAAGAAAAGGGUAGGCACUAAAGGGAGAACACAGAAAGAAGAAUUUCUAAAAUAUUGGAUUUACUUCUUAUAUUGAGUCAGAUGCAUUGGAAUUCUCGGGUGCCAA | 0.677 |
| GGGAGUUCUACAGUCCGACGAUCCAGCCCUCUCCUGCCUCCAUGCCUUGGGUCCCUGAAGAGCUUAGAACCCAAAGCUAGGGCCACCCCUGCACUUAGGCCUUGGCUGAAGAUCUUGAGACUGGUGUUUCCGUUGGAAUUCUCGGGUGCCAA | 1.55 |
| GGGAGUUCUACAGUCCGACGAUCCUCUAAAGUUAUAGAAAGAAUGAUGGUGGUAGUGGAGAGUAAGCCUCUUUGGGACCCUGCUUAGAGUCAAGGGUACCAAUGAGAAGGGCUAGGACAAGGAAUGCUUCUUGUGGAAUUCUCGGGUGCCAA | 2.32 |
| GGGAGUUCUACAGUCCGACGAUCCUCAGACUGUCCUGCAUGAAGGCAGGAGAGCUGAACUCUCUCUGGUCCUUGUCUUUCCCAAUCUUUGUCCCUCCAUCCCCAGUGGCAUCAGGAGAGGAGUAGGUAAUGUUUGGAAUUCUCGGGUGCCAA | 0.929 |
| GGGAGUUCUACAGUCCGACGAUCCAGGCACUUUUCAUGCUGUUUAAAAGACUGUGUAUCAAAUUGUGCACUUUAAGUAUGUGCAGUUUGUUGUAUGUCAAUUAUACCUCAAUAAAUCUGUAAUAAAAAACUAAUGGAAUUCUCGGGUGCCAA | 0.276 |
| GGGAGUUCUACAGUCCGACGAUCCAAAUCUGAGAUCACAUGAUCUUUACACUGCUAAUUCAUAAAGAUGCAUAAUACAGAAAGCCUGUGAACACAUGGAAGAUGAUCCUCAUGGUAUGUAUGGUCUGUGUCUUUGGAAUUCUCGGGUGCCAA | 0.531 |
| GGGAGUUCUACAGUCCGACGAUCUCUUUUACUGUAAGUUACUUAAGAUCAUUUUUGGAAGCAGGCGUGGUAGAGUCCUGUAAAUGAAUGCUCUGGGCUAGAUACAGCUUGGAGAACCUGCUGGCCUUGUUAGAUGGAAUUCUCGGGUGCCAA | 1.4 |
| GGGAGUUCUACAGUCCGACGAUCGGUUAAAUCGAUUUUGCAUCAGUCACUGAACUGUCAGCUACGUGGCAGGAACCGGACGGAAGAAUCCUCUCCAGGAGACUGGGCUUUAGUUAGUGGCUUGAUUCCCCGGCUGGAAUUCUCGGGUGCCAA | 0.578 |
| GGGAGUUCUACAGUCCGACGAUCCCGGAGGCUCUGGGGGGAGGGCAGCCUUUCAGUCAGCCCCCAUGCCUGCUGGGCUCUGGGCAGCCCUGCAGUUCCCUCUCUGGCUCUUCCACUCUCUGUGGGGUCCUGCGUGGAAUUCUCGGGUGCCAA | 0.514 |
| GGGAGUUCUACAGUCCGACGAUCAUUUUAAGAAUUCUCACUUGGCCUUUAGCACACCCGCCACCCCCAAGUGGGUGUGGAUAAUGCCAUGGCCAGCAGGGGGCACUGUUGAGGCGGGUGCCUUUCCACCUUAAUGGAAUUCUCGGGUGCCAA | 0.235 |
| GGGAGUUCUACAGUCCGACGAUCAGCGACAGAGUGGAUAAGUAAAAGGGCGAGGACUGGGACCCUGGUACUCUGAAUGAAGAGCCUGUGCCUCCCUCUCUCCCCUAACAGUUUUAAGGAGAUACAAUUUACCUUGGAAUUCUCGGGUGCCAA | 1.08 |
| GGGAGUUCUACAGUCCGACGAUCAGGUAGUGUGUAGCUCCAUUUCAGAAUGUUAACCUCCAGUGAAGAGCUAAUGACUGGUUAGAAGAUUGACAAACUAACCAAAAUUUUACACACUCCGGUUAUGUGUGUGAUGGAAUUCUCGGGUGCCAA | 2.39 |

Series 3
Target: CCNA2, cyclin fold, Cln2 fusion (human)
Method: yeast growth competition, sequencing
Matrix: yeast
Notes: strong parent motif
Reference: not given
Reading: higher = stronger binding
Starting sequence: PKN2 docking peptide (human); VSAVRKLDFSDTM; partner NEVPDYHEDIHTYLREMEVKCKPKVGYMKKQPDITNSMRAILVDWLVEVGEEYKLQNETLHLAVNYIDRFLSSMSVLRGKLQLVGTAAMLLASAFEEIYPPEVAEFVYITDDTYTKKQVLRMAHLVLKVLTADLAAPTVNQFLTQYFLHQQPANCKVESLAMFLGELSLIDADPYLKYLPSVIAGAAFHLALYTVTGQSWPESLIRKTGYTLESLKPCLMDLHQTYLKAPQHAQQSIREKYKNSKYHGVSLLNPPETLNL
| Substitution | normalised enrichment score |
| --- | --- |
| VSAVRKRDFSDTM [L7R] | 0.416 |
| VSAFRKLDFSDTM [V4F] | 5.44 |
| VSAVRKADFSDTM [L7A] | 0.287 |
| VSAVRKLHFSDTM [D8H] | 4.8 |
| VSAVRKQDFSDTM [L7Q] | -0.0486 |
| VSAVRKLDFSVTM [D11V] | 5.24 |
| VSAVFKLDFSDTM [R5F] | 0.641 |
| VSAVRKLDFLDTM [S10L] | 4.62 |
| VSAVTKLDFSDTM [R5T] | 1.78 |
| VDAVRKLDFSDTM [S2D] | 4.11 |
| VSAVRKSDFSDTM [L7S] | 0.281 |
| VSDVRKLDFSDTM [A3D] | -0.0795 |
| VSAVRKLDFSDNM [T12N] | 5.57 |
| VSAVRKLDSSDTM [F9S] | 0.236 |
| VSAVRKLDQSDTM [F9Q] | -0.365 |
| VSAVRKLDDSDTM [F9D] | -0.411 |
| VSAVRKLDFSDVM [T12V] | 4.72 |
| VPAVRKLDFSDTM [S2P] | 4.87 |
| VSAVRKLDFSSTM [D11S] | 5.35 |
| VSAVRKLCFSDTM [D8C] | 5.25 |
| VSAVRKLDFSDIM [T12I] | 5.22 |
| VSAVRNLDFSDTM [K6N] | 2.63 |
| VSAVRKNDFSDTM [L7N] | -0.18 |
| VSAVRKLKFSDTM [D8K] | 4.59 |
| VSAVRKGDFSDTM [L7G] | 0.108 |

Series 4
Target: Sal-like protein 4, full length isoform A (SALL4, Homo sapiens, UniProt Q9UJQ4, residues 1-1053)
Chain of UniProt Q9UJQ4 (whole entry, looked up): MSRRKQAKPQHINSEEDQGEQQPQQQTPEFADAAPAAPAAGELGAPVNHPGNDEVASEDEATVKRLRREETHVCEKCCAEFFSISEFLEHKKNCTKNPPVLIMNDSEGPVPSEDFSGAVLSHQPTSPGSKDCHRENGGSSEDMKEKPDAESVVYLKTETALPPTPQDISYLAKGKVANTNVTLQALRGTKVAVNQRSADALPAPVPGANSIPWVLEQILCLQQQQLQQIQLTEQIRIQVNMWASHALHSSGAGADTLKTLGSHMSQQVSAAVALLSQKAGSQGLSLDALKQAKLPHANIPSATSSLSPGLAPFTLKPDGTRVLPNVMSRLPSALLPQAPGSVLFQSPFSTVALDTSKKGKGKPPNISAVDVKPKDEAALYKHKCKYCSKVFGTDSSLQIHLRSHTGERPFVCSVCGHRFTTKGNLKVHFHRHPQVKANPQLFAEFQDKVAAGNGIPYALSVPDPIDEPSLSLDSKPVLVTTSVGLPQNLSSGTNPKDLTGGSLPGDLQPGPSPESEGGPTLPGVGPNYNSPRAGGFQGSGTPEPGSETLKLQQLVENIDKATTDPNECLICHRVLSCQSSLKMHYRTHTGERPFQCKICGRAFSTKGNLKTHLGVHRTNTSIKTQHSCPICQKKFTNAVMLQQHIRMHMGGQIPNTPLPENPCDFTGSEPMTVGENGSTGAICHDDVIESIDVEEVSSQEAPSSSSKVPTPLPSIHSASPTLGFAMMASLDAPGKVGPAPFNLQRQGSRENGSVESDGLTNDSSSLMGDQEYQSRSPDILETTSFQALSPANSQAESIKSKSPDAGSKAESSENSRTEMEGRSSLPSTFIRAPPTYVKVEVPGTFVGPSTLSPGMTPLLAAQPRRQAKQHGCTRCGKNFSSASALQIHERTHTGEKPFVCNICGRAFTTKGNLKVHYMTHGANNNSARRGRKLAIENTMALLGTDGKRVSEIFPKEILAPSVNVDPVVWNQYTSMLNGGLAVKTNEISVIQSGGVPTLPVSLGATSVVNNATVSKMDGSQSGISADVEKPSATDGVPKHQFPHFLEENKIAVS
Method: universal PBM
Molecule type: double-stranded DNA, one strand shown
Matrix: in vitro
Tested at: 600 nM
Notes: 8-mer, flanks averaged, mean of replicates
Reading: higher = stronger binding
| Oligonucleotide | E-score |
| --- | --- |
| TCTTCCAA | 0.15 |
| GGCAGCTA | -0.106 |
| AGGAACTA | -0.00464 |
| ACGGGTGC | -0.292 |
| ACTGACTA | 0.0314 |
| CCCTGGCG | -0.38 |
| CCCGCCAC | -0.115 |
| AGTAATCA | 0.0561 |
| CTCTTGTA | 0.0289 |
| AGAGTAAG | 0.0385 |
| AAGGTAGT | 0.14 |
| ATTTGGTG | 0.193 |
| ACGCCCAT | -0.102 |
| AAATACTC | 0.238 |
| CCTTCCCG | -0.193 |
| ACACTGGC | -0.131 |
| CAGATATC | 0.146 |
| CGGTCGTC | -0.288 |
| AAAGCCTA | 0.036 |
| AACGGGAT | -0.0948 |
| CCCCTCCC | -0.299 |
| AAGGATGG | -0.03 |
| GACACCGC | -0.339 |

Some of these lines once more (series 1):
| Oligonucleotide | E-score |
| --- | --- |
| GGGAATCA | -0.0374 |
| GCATCCCA | -0.0914 |
| AGCATACC | -0.0599 |
| ACCGAAAT | -0.0575 |
| GGTTAAAC | 0.0905 |
| AACCTATC | -0.174 |
| AGCCACAT | -0.0418 |
| AAGAAGGC | -0.131 |
| GCTAGAGA | 0.0107 |
| CTATTACC | -0.0886 |
